Measured values collected from several papers.
Parts stem from different laboratories: compare values within a part only.

Set 1 — technique: RNA Bind-n-Seq; molecule type: RNA; sample: in vitro; concentration: 365 nM; baseline: no-protein control; reading: higher = stronger binding
Target: RNA binding protein fox-1 homolog 2, RRM domain, GST-SBP tag (RBFOX2, Homo sapiens, UniProt O43251-10, residues 100-194)
Notes: natural RNA segment, single round, ends assumed
Construct (chain): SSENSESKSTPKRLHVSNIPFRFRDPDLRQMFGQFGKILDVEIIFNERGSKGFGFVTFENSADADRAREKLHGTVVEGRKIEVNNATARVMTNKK
`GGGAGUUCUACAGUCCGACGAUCGGCACUACUCCGAGGGUCCCUCACUCUACAAGGUCUUUGUUAGUAUUAAAGGCCACUGUUUUGCAUGAAUGUCCCAUUUGCAUUACUUUCAUUAUUGUCAGAAUUGCUCUUGGAAUUCUCGGGUGCCAA`: “RBNS enrichment (R)” 1.23.
Under “RBNS enrichment (R)”, `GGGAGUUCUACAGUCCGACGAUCUUCAAAGCAGCUACUCAACUAACACCUUGCAGUCUUGGAGUUAGUAUAAUACUGCUAAGAGAAGCCGGAAGCUUUUUUUUCUUGGAUUGCUUAUGAGCAGUAAUUUAAGAUGGAAUUCUCGGGUGCCAA` is recorded as 0.421.
For `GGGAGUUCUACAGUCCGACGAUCAAGCUUCACCAACCAAAUCAUCCUUGAGGAUGCUGCCAAAAGGCCCCCAGGACUCCCGCCCACACUCCUUUGGGCUGCUGCCUGCCUGGCUAGCUCUGUCCAGAUAGGACUGGAAUUCUCGGGUGCCAA`, “RBNS enrichment (R)” read 0.447.
`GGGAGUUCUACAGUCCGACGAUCCCUCGGCCCUCCGGACCCGGCUGCGGCCCCCGCCUCCGAGACCAAAUAGAGACGCUGCUUCUCCCUCGCCUGGUGCCGCCCCCGCCGGGCAGGGGCCAUCCACCCGCCCCUGGAAUUCUCGGGUGCCAA` — result for “RBNS enrichment (R)”: 0.41.
`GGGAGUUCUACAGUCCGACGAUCUCACUGGAGUGGCGUCUGCAGCAGCUGCUGCCCCAGCACCCGCUCAGCCUGUCCUGGCUGCUCACCUCCCCGCAGGGCACCGGGCCUUUCCUGCCCUCUGUGGUCAUCUGUGGAAUUCUCGGGUGCCAA`: “RBNS enrichment (R)” 0.199.
Under “RBNS enrichment (R)”, `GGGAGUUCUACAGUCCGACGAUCGUAGACAAAAUGGAUAUAAAUGAAAAUUACCAUGUUGUAAAACCUUGAAAAUCAGAUUCUAACUGGAUUUGUAUGCAACUAAGUAUUUUUCUGAACACCUAUGCAGGUCUUGGAAUUCUCGGGUGCCAA` is recorded as 0.651.
Under “RBNS enrichment (R)”, `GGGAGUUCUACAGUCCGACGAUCGCAAAUGUGUGUAUUUUAAGUGAGUUCCUGCGAGUCAUACACUGCGAUGAUGCUCCGCCUUUACCCGUUCAGUUGGGAGCUUAUUGUGAGAUUGGAUCAUUUCCUUUUGAUGGAAUUCUCGGGUGCCAA` is recorded as 0.525.
`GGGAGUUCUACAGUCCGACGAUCGUGGGCAACAUCCUCACUAAGCUGGUUAUGAAUAUAACCAGUGACUUCAACUUUGGCAUUUCAUUCAUACUUCUGUAGAGAACGGAAAACUAUUGUCCAUUAACAUGAUAUGGAAUUCUCGGGUGCCAA` — result for “RBNS enrichment (R)”: 0.242.

Set 2 — technique: RNAcompete; molecule type: RNA; sample: in vitro; concentration: 20 nM; notes: 7-mer, probes averaged, single round; baseline: mean of 7-mers; reading: higher = stronger binding
Target: PABPC1L2, full length, GST fusion (mouse, UniProt A0ABA7IW68)
Target sequence (chain): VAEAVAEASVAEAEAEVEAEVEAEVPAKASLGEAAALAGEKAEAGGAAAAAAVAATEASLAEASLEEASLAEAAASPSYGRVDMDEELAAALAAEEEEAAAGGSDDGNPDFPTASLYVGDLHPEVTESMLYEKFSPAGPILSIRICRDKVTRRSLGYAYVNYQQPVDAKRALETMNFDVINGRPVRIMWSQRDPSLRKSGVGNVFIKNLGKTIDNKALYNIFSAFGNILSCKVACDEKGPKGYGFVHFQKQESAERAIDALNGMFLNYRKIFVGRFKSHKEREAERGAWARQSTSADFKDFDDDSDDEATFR
The 7-mer Z-score of `UGAAUAG` is reported as -0.186.
For `CGCGCAU`, the 7-mer Z-score was -0.282.
With `UGAAGGC` the 7-mer Z-score was 0.0388.
For `CGUGGAG`, the 7-mer Z-score was 0.12.
`GUGGCAG` gave a 7-mer Z-score of 0.164.
The 7-mer Z-score of `CACUUCA` is reported as -0.173.
`CAGCCGU` gave a 7-mer Z-score of -0.222.
The 7-mer Z-score of `GAUCGCG` is reported as -0.275.
For `UCUAGAC`, the 7-mer Z-score was -0.0391.
`UUCCGUA` gave a 7-mer Z-score of -0.367.
`CCCCAAC` has a 7-mer Z-score of -0.318.
With `GGGAUAG` the 7-mer Z-score was 0.184.
For `ACCCGAC`, the 7-mer Z-score was -0.144.
The 7-mer Z-score of `UGUCUUC` is reported as -0.316.
`UCGACCU` gave a 7-mer Z-score of -0.122.
With `GUUAGUU` the 7-mer Z-score was -0.3.
`CAGUUUG` gave a 7-mer Z-score of -0.44.
With `AGACCCU` the 7-mer Z-score was -0.34.
With `UUUAACC` the 7-mer Z-score was -0.135.

Set 3 — technique: RNA Bind-n-Seq; molecule type: RNA; sample: in vitro; concentration: 1 µM; notes: whole 134-nt RNA, ends assumed; together with: 150 mM KCl; baseline: input library; reading: higher = stronger binding
Target: Ras GTPase-activating protein-binding protein 1, C-terminal RGG region (G3BP1, Homo sapiens, UniProt Q13283)
Chain of UniProt Q13283 (whole entry, looked up): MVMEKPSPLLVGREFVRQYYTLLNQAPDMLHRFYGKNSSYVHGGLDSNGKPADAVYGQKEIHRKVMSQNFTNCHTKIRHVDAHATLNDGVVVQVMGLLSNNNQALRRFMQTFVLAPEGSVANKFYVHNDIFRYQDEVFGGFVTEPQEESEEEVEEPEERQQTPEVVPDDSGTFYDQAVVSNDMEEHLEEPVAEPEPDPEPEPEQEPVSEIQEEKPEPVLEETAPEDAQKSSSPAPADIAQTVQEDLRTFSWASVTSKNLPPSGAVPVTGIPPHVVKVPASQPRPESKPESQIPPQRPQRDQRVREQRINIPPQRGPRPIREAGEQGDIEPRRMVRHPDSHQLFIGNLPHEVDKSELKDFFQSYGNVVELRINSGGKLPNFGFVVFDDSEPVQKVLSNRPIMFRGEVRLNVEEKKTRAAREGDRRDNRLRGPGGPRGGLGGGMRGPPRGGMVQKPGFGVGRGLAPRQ
For `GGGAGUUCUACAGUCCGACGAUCUGGCCCUGGUGGCAUGCGGGGAGGAAGAGGUGGCCUCAUGGAUCGUGGUGCUCCCGGUGGAAUGUUCAGAGGUGGCCGUGGUGGAGACAGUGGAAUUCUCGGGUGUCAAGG`, the log2 enrichment was 1.63.
For `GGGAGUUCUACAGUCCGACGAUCUGGCCCUGGUGGCAUGCGGGGAGGAAGAGGUGGCCUCAUGGACCGUGGUGGUCCCGGUGGAAUGUUCAGAGGUGGCCGUGGUGGAGACAGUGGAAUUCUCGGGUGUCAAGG`, the log2 enrichment was 2.15.
The log2 enrichment of `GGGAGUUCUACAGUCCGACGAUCCACAGACAACACGCACCCACACAGACACAGAGGGAAGGGGUUGGGAUGGGGACAGGGUGCACAGCAGGGCGGCGUAGGACCCCAGCCCCUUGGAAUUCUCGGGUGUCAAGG` is reported as -0.718.
With `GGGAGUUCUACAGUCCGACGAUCUCAAGUCCUGUGCUACACAUCGUAUGUACCGAAUCGGUUUGGUUUGGGGUUUGGGAAAGUAUUAUGUUACGCCGUUCGGAUCUGCACUUCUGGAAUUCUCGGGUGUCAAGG` the log2 enrichment was -1.22.
With `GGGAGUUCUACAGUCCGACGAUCACCAUGCAGGUGGGCAUCUUUGGGAAGUGGGGCAAGGGGUGGAUAGGGAGGGGGGUAACACUUUGGGAACAGGUGGUCCCAGGUCGUUUCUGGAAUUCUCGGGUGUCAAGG` the log2 enrichment was -1.07.
`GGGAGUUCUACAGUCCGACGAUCAGUCCUGUGCUACACAUCGUAUGUACCGAAUCGGGGCCCCCGGCCCCCGGCCCCCGGGAAAGUAUUAUGUUACGCCGUUCGGAUCUGCACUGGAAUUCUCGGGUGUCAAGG` gave a log2 enrichment of -2.
For `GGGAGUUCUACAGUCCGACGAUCUCAAGUCCUGUGCUACACAUCGUAUGUACCGAAUCGGGAAGGGGAAGGGAAGGGGAAAGUAUUAUGUUACGCCGUUCGGAUCUGCACUUCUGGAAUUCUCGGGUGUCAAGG`, the log2 enrichment was 2.73.
`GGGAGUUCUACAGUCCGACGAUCCUCAAGUCCUGUGCUACACAUCGUAUGUACCGAAUCGGCCGGGCCGGGGCCGGAAAGUAUUAUGUUACGCCGUUCGGAUCUGCACUUCCAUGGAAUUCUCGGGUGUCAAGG` gave a log2 enrichment of -0.838.
For `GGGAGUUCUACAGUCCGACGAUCAGUCCUGUGCUACACAUCGUAUGUACCGAAUCAAACCCCCAAACCCCCAAACCCAAAAAAGUAUUAUGUUACGCCGUUCGGAUCUGCACUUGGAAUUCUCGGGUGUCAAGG`, the log2 enrichment was -1.17.

Set 4 — technique: protein-binding microarray; molecule type: double-stranded DNA, one strand shown; sample: in vitro; concentration: 250 nM; notes: 60-bp whole probe; together with: salmon DNA 0.4 mg/ml; baseline: random background probes; reading: higher = stronger binding; all sequences stand within: GCCTAGCAC … GTCTTGATTCGCTTGACGCTGCTG
Target: Interferon regulatory factor 7, full length, phosphomimetic (IRF7, Homo sapiens, UniProt Q92985, residues 1-503, S101K/S471D/S472D/S475D/S476D/S477D/S483D/S484D/S487D)
Chain of UniProt Q92985 (whole entry, unmodified, looked up): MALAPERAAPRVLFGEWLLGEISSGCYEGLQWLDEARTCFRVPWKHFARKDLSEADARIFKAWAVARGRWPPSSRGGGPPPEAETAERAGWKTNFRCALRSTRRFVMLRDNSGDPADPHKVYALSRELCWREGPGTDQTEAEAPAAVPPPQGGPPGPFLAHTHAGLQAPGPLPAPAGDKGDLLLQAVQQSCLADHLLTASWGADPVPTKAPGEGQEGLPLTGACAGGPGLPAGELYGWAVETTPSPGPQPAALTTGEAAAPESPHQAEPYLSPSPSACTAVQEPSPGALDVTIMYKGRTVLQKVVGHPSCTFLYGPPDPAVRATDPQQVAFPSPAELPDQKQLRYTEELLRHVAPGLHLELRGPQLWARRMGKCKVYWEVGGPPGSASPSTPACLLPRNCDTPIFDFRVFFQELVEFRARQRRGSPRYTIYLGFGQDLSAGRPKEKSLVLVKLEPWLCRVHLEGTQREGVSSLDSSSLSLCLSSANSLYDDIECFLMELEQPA
The log fluorescence of `CGCTCTGTGCTCTTTGGGCTGTGCTAG` is reported as -0.499 z-score.
With `TTATAACTGAGTTTCGATTAGTGCTAG` the log fluorescence was 8.2 z-score.
For `GACGAACCGGGGACTGGAGACGTGCTA`, the log fluorescence was -0.217 z-score.
The log fluorescence of `TACGGTCTCGGACTGGGGACGTGCTAG` is reported as 0.124 z-score.
`TCAGGACTGCTACTGCTTTAGTGCTAG` gave a log fluorescence of -0.744 z-score.
The log fluorescence of `TTAGGTTTCCTTTTCCCTTAGTGCTAG` is reported as 6.55 z-score.
With `TTAGGTGTCGGTTCCGGTTAGTGCTAG` the log fluorescence was 1.54 z-score.
For `GACGGTTTCGGGACCGGGGACGTGCTA`, the log fluorescence was 3.7 z-score.
`CACACCCGGCTCCTCTGCCAGTGCTAG` gave a log fluorescence of -0.31 z-score.
`GCCGGTATCGGACTGGGGACGTGCTAG` gave a log fluorescence of 0.143 z-score.
With `TTAGAACTCAGTATCGATTAGTGCTAG` the log fluorescence was 0.751 z-score.
`TTATGACTGCTTATCCTTTAGTGCTAG` has a log fluorescence of -0.235 z-score.
With `TTAGATATCGGATTTCGATTAGTGCTA` the log fluorescence was 1.07 z-score.
`GACGGGCTCGGTATCGGGACGTGCTAG` gave a log fluorescence of 0.652 z-score.
`TTAGATCTCAGCCTCGATTAGTGCTAG` has a log fluorescence of 0.144 z-score.
For `ACTAGTTTCTTTTCTTTTCTGTGCTAG`, the log fluorescence was 7.8 z-score.
`TTAGGTATCAGGTATCGGTTAGTGCTA` has a log fluorescence of 0.95 z-score.
For `GACGGTCTACTACTGCTGACGTGCTAG`, the log fluorescence was -0.381 z-score.
`TTAGATATCCTTATCCTTTAGTGCTAG` has a log fluorescence of 0.228 z-score.

Repeated from above (set 1):
Under “RBNS enrichment (R)”, `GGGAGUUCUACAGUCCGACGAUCUUCAAAGCAGCUACUCAACUAACACCUUGCAGUCUUGGAGUUAGUAUAAUACUGCUAAGAGAAGCCGGAAGCUUUUUUUUCUUGGAUUGCUUAUGAGCAGUAAUUUAAGAUGGAAUUCUCGGGUGCCAA` is recorded as 0.421.
For `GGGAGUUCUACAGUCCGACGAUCAAGCUUCACCAACCAAAUCAUCCUUGAGGAUGCUGCCAAAAGGCCCCCAGGACUCCCGCCCACACUCCUUUGGGCUGCUGCCUGCCUGGCUAGCUCUGUCCAGAUAGGACUGGAAUUCUCGGGUGCCAA`, “RBNS enrichment (R)” read 0.447.
`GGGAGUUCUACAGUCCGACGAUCCCUCGGCCCUCCGGACCCGGCUGCGGCCCCCGCCUCCGAGACCAAAUAGAGACGCUGCUUCUCCCUCGCCUGGUGCCGCCCCCGCCGGGCAGGGGCCAUCCACCCGCCCCUGGAAUUCUCGGGUGCCAA` — result for “RBNS enrichment (R)”: 0.41.
`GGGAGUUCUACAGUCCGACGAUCUCACUGGAGUGGCGUCUGCAGCAGCUGCUGCCCCAGCACCCGCUCAGCCUGUCCUGGCUGCUCACCUCCCCGCAGGGCACCGGGCCUUUCCUGCCCUCUGUGGUCAUCUGUGGAAUUCUCGGGUGCCAA`: “RBNS enrichment (R)” 0.199.
Under “RBNS enrichment (R)”, `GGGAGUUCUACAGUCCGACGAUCGUAGACAAAAUGGAUAUAAAUGAAAAUUACCAUGUUGUAAAACCUUGAAAAUCAGAUUCUAACUGGAUUUGUAUGCAACUAAGUAUUUUUCUGAACACCUAUGCAGGUCUUGGAAUUCUCGGGUGCCAA` is recorded as 0.651.
Under “RBNS enrichment (R)”, `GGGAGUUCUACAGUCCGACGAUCGCAAAUGUGUGUAUUUUAAGUGAGUUCCUGCGAGUCAUACACUGCGAUGAUGCUCCGCCUUUACCCGUUCAGUUGGGAGCUUAUUGUGAGAUUGGAUCAUUUCCUUUUGAUGGAAUUCUCGGGUGCCAA` is recorded as 0.525.
`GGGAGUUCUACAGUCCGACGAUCGUGGGCAACAUCCUCACUAAGCUGGUUAUGAAUAUAACCAGUGACUUCAACUUUGGCAUUUCAUUCAUACUUCUGUAGAGAACGGAAAACUAUUGUCCAUUAACAUGAUAUGGAAUUCUCGGGUGCCAA` — result for “RBNS enrichment (R)”: 0.242.
